# Assay results collected from several papers.
# ± gives the spread as reported.
Molecule,cell line,assay,conditions,EC50
CN(C)c1ccc(C2Nc3ccc(C(=O)c4ccccc4)cc3NC3=C2C(=O)CC(C)(C)C3)cc1 (centres unmarked),SH-SY5Y,"cell growth or viability, MTS",,15.3 µM
tetraglycine,HLA-A*0201-restricted CD8 T-cell clone,TNF-alpha production,"cross-presentation, together with: peptide-loaded mature macrophage-derived DC",1.9 µM
insulin icodec,COLO 205,"DNA synthesis, agonist, 3H-thymidine incorporation",HSA 0%,0.073 µM
N=C(N)NCCC[C@H](NC(=O)[C@@H]1CCCN1C(=O)[C@@H]1CSSC[C@H](N)C(=O)N[C@@H](Cc2ccc(O)cc2)C(=O)N[C@@H](Cc2ccccc2)C(=O)N[C@@H](CCC(N)=O)C(=O)N[C@@H](CC(N)=O)C(=O)N1)C(=O)NCC(N)=O,hiPSC-derived cardiomyocytes,"intracellular Ca2+ increase, FLIPR",,0.121 µM
"CCOC(=O)c1[nH]c2cc(Cl)ccc2c1C(C(=O)NC(C)(C)C)N(C=O)Cc1ccc(Cl)cc1 (single isomer, unassigned; (-))",MOLM-13,"metabolic activity, WST-1",48 h,25.2 µM
N[C@@H](CCC(=O)O)C(=O)O,cerebellar granule cells,neuroprotection,,76 µM
CC1(C)CC(=O)C2=C(C1)Nc1cc(-c3ccccc3)ccc1NC2c1ccc(N2CCCC2)cc1 (centres unmarked),SH-SY5Y,"cell growth or viability, MTS",,13.8 µM
CCNC(=O)Nc1ccc(S(=O)(=O)Oc2cccnc2C(C)C)cc1,THP-1 cells,"CD11b+CD14+ differentiation, flow cytometry",120 h,8 µM
COc1cc2c(cc1OC)C(=O)N(CCCCN1C(=O)/C(=N\NC(=S)N(C)C)c3ccccc31)CC2,pancreatic cancer cell lines,cell viability,"48 h, over all lines tested",2.18 to 10.3 µM
CCCCN(CCCC)c1ccc(C2Nc3ccc(Cl)cc3NC3=C2C(=O)CC(C)(C)C3)cc1 (centres unmarked),SH-SY5Y,"cell growth or viability, MTS",,> 50 µM
CCCCN1CCN(C2CCCCC2)CC1,pancreatic cancer cell lines,cell viability,"48 h, over all lines tested",> 100 µM
salvianolic acid B,human gel-filtered platelets,platelet aggregation inhibition,together with: thrombin 0.02 U/mL,44 ± 10 µM
O=C1CCC(N2C(=O)c3cccc(NCCOCCOCCOCCN4CCN(c5ccc(-c6ccc7c(c6)C(=O)N(C(C(=O)Nc6nccs6)c6cc(F)ccc6O)C7)cc5)CC4)c3C2=O)C(=O)N1 (centres unmarked),Ba/F3 EGFR L858R/T790M,cell proliferation,,0.48 µM
O=C1c2c(O)ccc(O)c2C(=O)c2c(NCCNCCO)ccc(NCCNCCO)c21,Trp53-null mouse neurospheres,cell proliferation,72 h,0.19 µM
CCN(CC)c1ccc(C2Nc3ccc(C(=O)c4ccccc4)cc3NC3=C2C(=O)CC(C)(C)C3)cc1 (centres unmarked),SH-SY5Y,"cell growth or viability, MTS",,~7 µM
NC(=S)N/N=C1\C(=O)Nc2ccccc21,pancreatic cancer cell lines,cell viability,"48 h, over all lines tested",> 100 µM
insulin human,rat primary adipocytes,"lipogenesis, agonist, [3H]glucose incorporation into lipid",0.1% HSA,4.1e-05 µM
O=C(Nc1nccs1)C(c1ccccc1)N1Cc2ccc(-c3ccc(N4CCNCC4)nc3)cc2C1=O (centres unmarked),Ba/F3 EGFR L858R/T790M,cell proliferation,,4.9 µM
CC1(C)CC(=O)C2=C(C1)Nc1cc(-c3ccccc3)ccc1NC2c1ccc(N2CCOCC2)cc1 (centres unmarked),SH-SY5Y,"cell growth or viability, MTS",,21.7 µM
O=C(O)c1ccc(Nc2nc(-c3ccc4ccccc4c3)cs2)cc1O,786-O,"apoptosis, western blot, measured: cleaved PARP, survivin",24 h,4.6 to 4.9 µM
CCN(CC)c1ccc(C2Nc3ccc(C(F)(F)F)cc3NC3=C2C(=O)CCC3)cc1 (centres unmarked),SH-SY5Y,"cell growth or viability, MTS",,> 50 µM
N[C@@H](CCS(=O)(=O)O)C(=O)O,cerebellar granule cells,neuroprotection,,31 µM
CC1(C)CC(=O)C2=C(C1)Nc1cc(C(=O)c3ccccc3)ccc1NC2c1ccc(N2CCCCC2)cc1 (centres unmarked),SH-SY5Y,"cell growth or viability, MTS",,15 µM
CC1CCc2nc(N)c(C#N)c(-c3cccnc3)c2C1 (centres unmarked),mouse bone marrow-derived dendritic cells,IL-10 release,"pretreated 48 h, together with: zymosan A for 18 h",~1 µM
CC1(C)CC(=O)C2=C(C1)Nc1cc(Br)ccc1NC2c1ccc(N2CCCCC2)cc1 (centres unmarked),SH-SY5Y,"cell growth or viability, MTS",,31.4 µM
C=C(C)[C@@H]1CC[C@]2(CO[C@@H]3O[C@@H](C)[C@H](O)[C@@H](O)[C@H]3O)CC[C@]3(C)[C@H](CC[C@@H]4[C@@]5(C)CC[C@H](O[C@@H]6O[C@@H](C)[C@H](O)[C@@H](O)[C@H]6O)C(C)(C)[C@@H]5CC[C@]43C)[C@@H]12,RAW 264.7,"NO production, inhibitor, Griess","24 h, together with: LPS 100 ng/mL",14 ± 1 µM

# Some of these lines once more:
Molecule,cell line,assay,conditions,EC50
"CCOC(=O)c1[nH]c2cc(Cl)ccc2c1C(C(=O)NC(C)(C)C)N(C=O)Cc1ccc(Cl)cc1 (single isomer, unassigned; (-))",MOLM-13,"metabolic activity, WST-1",48 h,25.2 µM
CC1(C)CC(=O)C2=C(C1)Nc1cc(-c3ccccc3)ccc1NC2c1ccc(N2CCOCC2)cc1 (centres unmarked),SH-SY5Y,"cell growth or viability, MTS",,21.7 µM
CCN(CC)c1ccc(C2Nc3ccc(C(=O)c4ccccc4)cc3NC3=C2C(=O)CC(C)(C)C3)cc1 (centres unmarked),SH-SY5Y,"cell growth or viability, MTS",,~7 µM
